Measurements collected from several papers.
Protocols differ between the studies behind these lines. Several values in a cell are separate wells, animals, samples, runs or records. Numbers after ± are the reported error.
Fibroin-modulator-binding protein-1: Fibroin-modulator-binding protein-1 99-193 (Bombyx mori, UniProt Q5FBS0)
HLA class I histocompatibility antigen, A alpha chain allele A*02:01: HLA class I histocompatibility antigen, A alpha chain, allele A*02:01 (Homo sapiens, UniProt P04439)
UniProt P48067, sequence (whole entry, looked up): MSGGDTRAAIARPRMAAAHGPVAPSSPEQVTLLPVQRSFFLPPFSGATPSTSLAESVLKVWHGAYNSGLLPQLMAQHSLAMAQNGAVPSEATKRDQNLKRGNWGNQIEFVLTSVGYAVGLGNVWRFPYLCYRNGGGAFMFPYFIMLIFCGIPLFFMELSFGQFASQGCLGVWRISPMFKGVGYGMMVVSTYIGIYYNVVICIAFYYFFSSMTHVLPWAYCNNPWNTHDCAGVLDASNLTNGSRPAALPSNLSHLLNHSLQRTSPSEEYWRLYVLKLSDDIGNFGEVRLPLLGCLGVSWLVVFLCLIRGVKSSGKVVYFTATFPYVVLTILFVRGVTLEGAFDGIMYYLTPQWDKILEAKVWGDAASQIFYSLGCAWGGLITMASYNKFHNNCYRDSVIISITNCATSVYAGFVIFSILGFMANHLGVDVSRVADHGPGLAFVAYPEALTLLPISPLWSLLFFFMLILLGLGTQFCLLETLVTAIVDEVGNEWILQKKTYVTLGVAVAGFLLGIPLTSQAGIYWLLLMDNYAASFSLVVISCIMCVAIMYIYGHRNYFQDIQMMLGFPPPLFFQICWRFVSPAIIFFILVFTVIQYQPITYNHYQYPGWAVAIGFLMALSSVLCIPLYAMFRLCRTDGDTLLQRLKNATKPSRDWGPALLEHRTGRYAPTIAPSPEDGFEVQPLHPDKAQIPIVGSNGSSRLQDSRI

Molecule	tested on	assay	test system	conditions	scale	quantity	result
SLLEWVTQV	Jurkat T cells expressing 1G4 TCR	NFAT-eGFP reporter, flow cytometry	peptide	concentration not given, HLA-A*02:01 NY-ESO system	–	reporter activation	0.15%
QSARYRDTEL	human MAGI1-3/6 PDZ construct (MBP fusion)	automated holdup	peptide, purified PDZ protein	concentration not given, unit not given	baseline: biotin control resin, higher = stronger binding	binding intensity	0.0266
Peginesatide	UT7/EPO	tyrosine phosphorylation, LC-MS/MS phosphoproteomics, GluC, item: STAT5B tyrosine 682	–	10 nM, 15 min, together with: 10 U/mL EPO	baseline: vehicle	phosphorylation level	86.1 fold
MTVCNASQRQAHAQATAVSL	MDA-MB-231	phage binding	peptide	–	baseline: targeting over control phage	selectivity ratio	0.94 ± 0.26
milbemycin oxime	Saccharomyces cerevisiae	cell growth	Pdr5 deleted, Cdr1 overexpressed	2^-7.966 µg/mL, together with: fluconazole 10 µg/mL	–	OD600	1.02 and 1.01
colistin	Klebsiella oxytoca	broth microdilution	clinical isolate RKI-No 52/07	–	–	MIC	2 µg/mL
ALLQWTDQV	Jurkat T cells expressing 1G4 TCR	NFAT-eGFP reporter, fluorescence microscopy	peptide	concentration not given, HLA-A*02:01 NY-ESO system	–	reporter activation	10.8%
USP14	–	co-immunoprecipitation	human RBC cytosol	DMTMM crosslinker, unit not given, together with: Band 3 peptide 1-56 bait	baseline: negative control	co-IP enrichment	30900
AACGAACGAACG (dsDNA)	Fibroin-modulator-binding protein-1	ITC	double-stranded DNA, one strand shown	–	–	Kd	4.76 ± 0.956 µM
MQLMPFGCLLD	HLA class I histocompatibility antigen, A alpha chain allele A*02:01	conformational ELISA	peptide	concentration not given	baseline: positive control peptide, direction not given	binding score	4.2%
Polymyxin B	Staphylococcus aureus	–	CMCC 26003	concentration not given	–	catalase activity	0.226 U/mol and 0.21 U/mol and 0.245 U/mol
PFGSLLDY	HLA class I histocompatibility antigen, A alpha chain, allele A*01:01 (Homo sapiens, UniProt P04439)	conformational ELISA	peptide	concentration not given	baseline: positive control peptide, direction not given	binding score	0.1%
human alpha-enolase	–	co-immunoprecipitation	human RBC membrane	unit not given, together with: Band 3 peptide 1-56 bait	baseline: negative control	co-IP enrichment	1.04
KPGKGSETVV	human MAGI1-3/6 PDZ construct (MBP fusion)	surface plasmon resonance	peptide	concentration not given	higher = stronger binding	normalised SPR binding response	0 normalised RU
thimet oligopeptidase	–	co-immunoprecipitation	human RBC cytosol	unit not given, together with: Band 3 peptide 1-56 bait	baseline: negative control	co-IP enrichment	0
11-deoxycorticosterone	CYP11B2 (human)	substrate binding, stopped-flow global kinetic fitting	purified enzyme	model, 4-state, linear IF, together with: no adrenodoxin	–	Kd	3.74 µM
maraviroc	HBMEC	gene expression, qPCR	–	concentration not given, 24 h, together with: HIV infection plus Aβ42	baseline: HIV plus Aβ42-treated cells, decrease	mRNA level	5.4 fold
GLAQWVPLV	Jurkat T cells expressing 1G4 TCR	NFAT-eGFP reporter, flow cytometry	peptide	concentration not given, HLA-A*02:01 NY-ESO system	–	reporter activation	0.2%
GSGAGQITKV	human MAGI1-3/6 PDZ construct (MBP fusion)	automated holdup	peptide, purified PDZ protein	concentration not given, unit not given	baseline: biotin control resin, higher = stronger binding	binding intensity	0.188
GLFQWISQA	Jurkat T cells expressing 1G4 TCR	NFAT-eGFP reporter, fluorescence microscopy	peptide	concentration not given, HLA-A*02:01 NY-ESO system	–	reporter activation	0.654%
GSGAGKETRV	human SCRIB PDZ3-4 tandem (MBP fusion)	automated holdup	peptide, crude extract	concentration not given, corrected by standard peak, unit not given	baseline: biotin control resin, higher = stronger binding	binding intensity	0.815
CAGATACTCT	Salmonella enterica Typhimurium	RNA-seq, item: pipB2 mRNA	peptide, SL1344	5 µM, 15 min	baseline: water control	log2 fold change	2.66
human delta-aminolevulinic acid dehydratase	–	co-immunoprecipitation	human RBC cytosol	DMTMM crosslinker, unit not given, together with: Band 3 peptide 1-56 bait	baseline: negative control	co-IP enrichment	8130

Molecule	tested on	assay	test system	conditions	scale	quantity	result
epoetin alfa	UT7/EPO	RT-qPCR, item: EGR1	–	concentration not given, 90 min, normalized to HPRT1	baseline: vehicle	mRNA level	63.6 fold
human HSC70	–	co-immunoprecipitation	human RBC cytosol	DMTMM crosslinker, unit not given, together with: Band 3 peptide 1-56 bait	baseline: negative control	co-IP enrichment	3170
GLAQWISGV	Jurkat T cells expressing 1G4 TCR	NFAT-eGFP reporter, fluorescence microscopy	peptide	concentration not given, HLA-A*02:01 NY-ESO system	–	reporter activation	0.0181%
SEKHFRETEV	human SCRIB PDZ3-4 tandem (MBP fusion)	automated holdup	peptide, crude extract	concentration not given, corrected by standard peak, unit not given	baseline: biotin control resin, higher = stronger binding	binding intensity	0.981
GCGAGCGAGCGA (dsDNA)	Fibroin-modulator-binding protein-1	ITC	double-stranded DNA, one strand shown	–	–	Kd	7.95 µM
TCP-1 alpha	–	co-immunoprecipitation	human RBC membrane	unit not given, together with: Band 3 peptide 1-56 bait	baseline: negative control	co-IP enrichment	0
ILEAAKSIAAATSALVKAASAAQRE	vinculin head domain Vd1	complex rupture, AFM single-molecule force spectroscopy	peptide	traces traces, C-terminal pulling, 800 nm/s	–	rupture force FWHM upper side	19.2 pN
GLLEWVSQV	Jurkat T cells expressing 1G4 TCR	NFAT-eGFP reporter, flow cytometry	peptide	concentration not given, HLA-A*02:01 NY-ESO system	–	reporter activation	0.15%
Ac-LRKLRKRLLRDWLKAFYDKVAEKLKEAF-NH2 (N-acetyl, C-amide)	THP-1-derived macrophages	–	peptide	20 µg/mL, 4 h	baseline: untreated control	newly synthesized apoE secretion	4 fold
LMDLSTTEV	HLA class I histocompatibility antigen, A alpha chain allele A*02:01	peptide-MHC stability, brefeldin A chase	peptide, T2 cells	–	–	complex half-life	> 7 h
GGGAGAACUUCGACCAGAAGUCAAUCCUGCACGUACUACGCGAAAACUGUCCCCCGCCUGUAUGUGCGCAUACAUGGAUCCUC (ssRNA; 2'-fluoro pyrimidines)	integrin alphaV/beta3 31-992/27-718 (Homo sapiens)	SPR	RNA	together with: MnCl2 1 mM	higher = more binding	relative binding	103 RU
hemoglobin beta	–	co-immunoprecipitation	human RBC membrane	unit not given, together with: Band 3 peptide 1-56 bait	baseline: negative control	co-IP enrichment	1.08
cotadutide	–	metabolomics, item: hepatic aspartate	ob/ob mice on AMLN diet, NASH model, liver	dose not given	–	metabolite level	1.11 ± 0.05 scaled intensity
NPDALPETLV	human SCRIB PDZ3-4 tandem (MBP fusion)	automated holdup	peptide, purified PDZ protein	concentration not given, unit not given	baseline: biotin control resin, higher = stronger binding	binding intensity	0.339
AAAEGEMK	MsrA and MsrB	LC-MS/MS	peptide, acetylated Escherichia coli proteome	20 min, pH 7.5, 37 °C, together with: MsrA 0.54 µM, MsrB 2.02 µM	–	fractional oxidation	0.0675
PKRSFIESNV	human MAGI1-2/6 PDZ construct (MBP fusion)	automated holdup	peptide, crude extract	concentration not given, corrected by standard peak, unit not given	baseline: biotin control resin, higher = stronger binding	binding intensity	0.41
SEC11A	–	co-immunoprecipitation	human plasma	unit not given, together with: Band 3 peptide 1-56 bait	baseline: negative control	co-IP enrichment	0.527
GSGAGKETEC	human MAGI1-3/6 PDZ construct (MBP fusion)	automated holdup	peptide, crude extract	concentration not given, corrected by standard peak, unit not given	baseline: biotin control resin, higher = stronger binding	binding intensity	0.0432
RLFEWVPRL	Jurkat T cells expressing 1G4 TCR	NFAT-eGFP reporter, fluorescence microscopy	peptide	concentration not given, HLA-A*02:01 NY-ESO system	–	reporter activation	0.00879%
calcium	–	ion current, two-electrode voltage clamp	Xenopus oocytes	10 mM, -80 mV, together with: niflumic acid present	–	desensitization time constant	7.47 s and 6.97 s and 10.1 s and 10.8 s
GLGQWISQA	Jurkat T cells expressing 1G4 TCR	NFAT-eGFP reporter, fluorescence microscopy	peptide	concentration not given, HLA-A*02:01 NY-ESO system	–	reporter activation	0.00728%
methyl-β-cyclodextrin	SLC6A9 (Homo sapiens, UniProt P48067)	transport activity, [3H]glycine uptake	–	2.5 mg/mL, 1 min, together with: glycine 37.5 µM	higher = more transport	glycine uptake rate	15 a.u. and 23.5 a.u. and 24.7 a.u. and 14.5 a.u. and 23.1 a.u.

Excerpt of the above:
Molecule	tested on	assay	test system	conditions	scale	quantity	result
GLAQWISGV	Jurkat T cells expressing 1G4 TCR	NFAT-eGFP reporter, fluorescence microscopy	peptide	concentration not given, HLA-A*02:01 NY-ESO system	–	reporter activation	0.0181%
SEKHFRETEV	human SCRIB PDZ3-4 tandem (MBP fusion)	automated holdup	peptide, crude extract	concentration not given, corrected by standard peak, unit not given	baseline: biotin control resin, higher = stronger binding	binding intensity	0.981
GCGAGCGAGCGA (dsDNA)	Fibroin-modulator-binding protein-1	ITC	double-stranded DNA, one strand shown	–	–	Kd	7.95 µM
TCP-1 alpha	–	co-immunoprecipitation	human RBC membrane	unit not given, together with: Band 3 peptide 1-56 bait	baseline: negative control	co-IP enrichment	0
